Results of several laboratories.
Target: Phosphatidylinositol 4,5-bisphosphate 3-kinase catalytic subunit gamma isoform (PIK3CG, Homo sapiens, UniProt P48736)
UniProt P48736, sequence (whole entry, looked up): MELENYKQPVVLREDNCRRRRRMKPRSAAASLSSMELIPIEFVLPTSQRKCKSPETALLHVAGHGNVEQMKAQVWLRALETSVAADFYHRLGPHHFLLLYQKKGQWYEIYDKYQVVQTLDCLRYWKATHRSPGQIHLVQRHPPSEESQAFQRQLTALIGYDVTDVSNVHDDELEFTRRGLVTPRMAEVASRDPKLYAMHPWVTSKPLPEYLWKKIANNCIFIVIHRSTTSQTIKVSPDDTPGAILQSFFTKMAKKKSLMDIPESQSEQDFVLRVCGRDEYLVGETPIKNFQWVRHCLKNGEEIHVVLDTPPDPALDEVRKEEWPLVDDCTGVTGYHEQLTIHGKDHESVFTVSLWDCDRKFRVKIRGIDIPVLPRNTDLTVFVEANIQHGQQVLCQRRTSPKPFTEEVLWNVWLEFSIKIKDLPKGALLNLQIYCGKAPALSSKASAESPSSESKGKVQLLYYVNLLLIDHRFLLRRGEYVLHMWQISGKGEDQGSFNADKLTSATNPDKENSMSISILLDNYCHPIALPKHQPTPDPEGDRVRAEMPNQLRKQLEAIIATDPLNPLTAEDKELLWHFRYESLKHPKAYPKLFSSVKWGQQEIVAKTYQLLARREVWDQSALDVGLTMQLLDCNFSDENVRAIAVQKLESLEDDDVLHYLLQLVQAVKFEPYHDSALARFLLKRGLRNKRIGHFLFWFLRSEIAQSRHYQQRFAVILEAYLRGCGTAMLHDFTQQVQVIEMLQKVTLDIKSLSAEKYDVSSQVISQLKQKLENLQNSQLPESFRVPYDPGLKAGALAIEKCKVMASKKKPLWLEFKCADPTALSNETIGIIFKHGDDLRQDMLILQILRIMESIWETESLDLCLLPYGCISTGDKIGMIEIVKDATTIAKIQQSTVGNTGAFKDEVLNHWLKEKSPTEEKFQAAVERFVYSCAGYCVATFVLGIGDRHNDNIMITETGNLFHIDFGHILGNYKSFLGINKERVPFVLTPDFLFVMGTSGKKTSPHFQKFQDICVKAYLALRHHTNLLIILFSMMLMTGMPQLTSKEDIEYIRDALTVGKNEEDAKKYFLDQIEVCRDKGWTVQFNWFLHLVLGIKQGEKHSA

Cc1cnc2nc1Nc1cccc(c1)COC/C=C/COCc1cc(ccc1OCCN1CCOCC1)N2
remaining binding (binding; 0.1 µM): 96%

C=CC(=O)N1CCc2ccc(-n3c(=O)ccc4cnc5ccc(-c6cnn(C)c6)cc5c43)cc21
remaining binding (KINOMEscan; 1 µM; relative to: DMSO control): 100%

CS(=O)(=O)Nc1cccc(-c2csc3cnc(Nc4ccc(N5CCN(CCCCCOc6cccc7c6C(=O)N(C6CCC(=O)NC6=O)C7=O)CC5)cc4)nc23)c1 (centres unmarked)
inhibition (probe labelling, inhibitor, KiNativ chemoproteomics; MOLT-4; 1 µM): -36%

CNC1C[S+]2CC[S+]3CC[S+](C1)[Ru-4]321([N]=C=S)[n]2c3ccc(OC)cc3c3c4c(c5cc(F)c[n+]1c5c32)C(=O)NC4=O (centres unmarked)
remaining binding (KinomeScan; 0.1 µM; relative to: untreated): 100%

CC(=O)c1cnc(N)nc1N1CC[C@H]1c1nn2ccc(Cl)c2c(=O)n1-c1ccccc1
target engagement (KiNativ; intact human PBMC; 0.1 µM, 1 h): 67.9%

CC(C)=CC1OC(C)(C)C2C=C3C(=O)C(Cl)=CC(O)C3C3C(O)C4OC4C(=O)C132 (centres unmarked)
remaining binding (cell-free assay, competition with immobilised ligand; 10 µM): 87%

CN1CCN(Cc2ccc(NC(=O)c3cccc(C#Cc4cnc(N)c5ncccc45)c3)cc2C(F)(F)F)CC1
remaining binding (cell-free assay, competition with immobilised ligand; 50 nM): 89%

CCN1CCN(Cc2ccc(C(=O)Nc3ccc(C)c(NCc4cnc5[nH]ccc5c4OC)c3)cc2C(F)(F)F)CC1
remaining binding (binding, competition with immobilised ligand; 1 µM): 100%

CNC(=O)C[C@H](Cc1ccc(C#N)cc1)NC(=O)c1cc(-c2ccc(CN[C@H](C)c3ccc(C)cc3)o2)ccc1Cl
activity vs control (enzyme activity, inhibitor; 1 µM): 97%

COc1ccc(NC(=O)Nc2ccc3c(c2)C(=O)N(C(C)CO)CC(C)C(CN(C)Cc2ccc4c(c2)OCO4)O3)cc1 (centres unmarked)
remaining binding (binding, competition with immobilised ligand; 10 µM): 100%

C=CC(=O)N1CCCC(n2c(=O)c3ncccc3n(Cc3ccc(Oc4ccccc4)cc3)c2=O)C1 (centres unmarked)
remaining binding (cell-free assay, competition with immobilised ligand; 1 µM): 100%

C=CC(=O)Nc1cccc(-c2cnc3[nH]cc(C(=O)NC(C)(C)C)c3n2)c1
inhibition (enzyme activity, inhibitor; 0.1 µM): 14%

O=C(Cc1ccc(OCc2ccccc2)cc1)NC1(C(=O)O)CCN(C(=O)c2ccc(-c3cccc(Cl)c3)cc2)CC1
activity vs control (enzyme activity, inhibitor; 10 µM): 100%

COc1cc(Nc2nccc(-c3cnn4nc(OC)ccc34)n2)cc(C(F)(F)F)c1
remaining binding (binding, competition with immobilised ligand; 1 µM): 65%

For quick reference, copied from above:
CNC1C[S+]2CC[S+]3CC[S+](C1)[Ru-4]321([N]=C=S)[n]2c3ccc(OC)cc3c3c4c(c5cc(F)c[n+]1c5c32)C(=O)NC4=O (centres unmarked)
remaining binding (KinomeScan; 0.1 µM; relative to: untreated): 100%

C=CC(=O)Nc1cccc(-c2cnc3[nH]cc(C(=O)NC(C)(C)C)c3n2)c1
inhibition (enzyme activity, inhibitor; 0.1 µM): 14%
